Measurements gathered from unrelated publications.
Compare with care: the assays were run in different laboratories. Numbers after ± are the reported error.

Compound	tested on	test	test system	setting	how to read	measurement	result
CC(C)(C)c1cnc(CSc2cnc(NC(=O)C3CCN(C(=O)CCCCCCCN4Cc5cc6c(cc5C4)C(=O)N(C4CCC(=O)NC4=O)C6=O)CC3)s2)o1 (stereo not drawn)	TC-71	DNA replication	–	50 nM, 24 h	–	BrdU incorporation	decreased
Cc1cn(-c2cc(NC(=O)c3ccc(C)c(Nc4nccc(-c5cccnc5)n4)c3)cc(C(F)(F)F)c2)cn1	iCell Cardiomyocytes (hiPSC-derived)	CellTiter-Glo	–	concentration not given, 24 h	baseline: control	ATP level	104%
Cc1c(C)c2c(c(C)c1O)CCC(C)(COc1ccc(CC3SC(=O)NC3=O)cc1)O2 (stereo not drawn)	THLE-2	–	–	40 µM, 96 h, 2D culture	–	caspase-3/7 activity	~50%
C=CC(=O)Nc1cc2c(Nc3ccc(F)c(Cl)c3)ncnc2cc1OCCCN1CCOCC1	iCell Cardiomyocytes (hiPSC-derived)	xCELLigence Cardio impedance	–	concentration not given, 2 h	baseline: control	beat amplitude	98.3%
CCn1c(-c2nonc2N)nc2cncc(CNC3CCNCC3)c21	SK-OV-3	ATP	–	1 µM, 4 days, 3D U-bottom low-attachment	baseline: untreated	relative cell number	115%
C=CCNC1=C2C[C@@H](C)C[C@H](OC)[C@H](O)[C@@H](C)/C=C(\C)[C@H](OC(N)=O)[C@@H](OC)/C=C\C=C(/C)C(=O)NC(=CC1=O)C2=O	ARPE-19 HiBiT fibulin-3	HiBiT luminescence	–	5 µM	–	fibulin-3 level	-34.1%
C#Cc1cccc(Nc2ncnc3cc(OCCOC)c(OCCOC)cc23)c1	iCell Cardiomyocytes (hiPSC-derived)	cellular impedance	–	concentration not given, 24 h	baseline: control	cell index	101%
CCn1cc(-c2cc(Cn3ccnc3)cc3c2CCN([C@H](c2cc(OC)ccn2)C2CC2)C3=O)c(C(F)(F)F)n1	RT-4	cell growth, inhibitor	–	120 h	–	EC50	12.1 µM
OC1CCN(c2ccc(/C=N/NC(=S)NCc3ccccc3)cc2)CC1	BEAS-2B and A549	MTT	–	–	baseline: IC50 BEAS-2B over IC50 A549	selectivity ratio	3
CCn1cc(-c2cc(Cn3ccoc3=N)cc3c2CCN([C@@H](C)c2cc(OC)ccn2)C3=O)c(C(F)(F)F)n1	SNU-449	cell growth, inhibitor	–	120 h	–	EC50	8.04 µM
CCN[C@@H]1C[C@H](N)[C@@H](O[C@H]2OC(CN)=CC[C@H]2N)[C@H](O)[C@H]1O[C@H]1OC[C@](C)(O)[C@H](NC)[C@H]1O.CCN[C@@H]1C[C@H](N)[C@@H](O[C@H]2OC(CN)=CC[C@H]2N)[C@H](O)[C@H]1O[C@H]1OC[C@](C)(O)[C@H](NC)[C@H]1O.O=S(=O)(O)O.O=S(=O)(O)O.O=S(=O)(O)O.O=S(=O)(O)O.O=S(=O)(O)O	HepaRG	ROS-Glo luminescence	–	–	–	maximal ROS response	-91.4 ± 28.1%
COc1cccc(C(=O)O)c1N	–	binding, equilibrium dialysis LC-MS	–	5 µM, thermostabilized A2AR-BRIL construct	baseline: no-protein control, direction not given	z-scored log2 fold change	0.305
O=C(O)c1ccc(-c2c[nH]c3ncc(-c4ccccc4)cc23)cc1C1CCCC1	SK-OV-3	ATP	2D monolayer culture	0.1 µM, 4 days	baseline: untreated	relative cell number	109%
CCCCc1nc(Cl)c(CO)n1Cc1ccc(-c2ccccc2-c2nn[nH]n2)cc1	human PBMC	RNA-seq, measured: SLC7A8 mRNA	–	10 µg/mL, 24 h	baseline: untreated control	log2 fold change	-2.1
CNC(=O)c1ccccc1Sc1ccc2c(/C=C/c3ccccn3)n[nH]c2c1	iCell Cardiomyocytes (hiPSC-derived)	xCELLigence Cardio impedance	–	concentration not given, 2 h	baseline: control	beat rate	94.1%
[Cl-].[Cl-].[Os+2].c1cnc2c(c1)ccc1cccnc12.c1cnc2c(c1)ccc1cccnc12.c1cnc2c(c1)ccc1cccnc12	SK-MEL-28	cell growth, SRB	–	cool white visible light, normoxia	–	TGI	13.5 µM
CCCCN1CCN(c2ccc3[nH]c(-c4ccc5[nH]c(-c6cc(OC)c(OC)c(OC)c6)nc5c4)nc3c2)CC1	SK-MEL-2	SRB	–	10 µM, 48 h	–	growth percent	83.8%
C=CC(=O)N1CCC[C@@H](c2ccc(C(N)=O)c3[nH]ccc23)C1	Ramos	calcium flux, FLIPR	–	4 h preincubation	–	IC50	> 1 µM
c1ccc2[nH]ccc2c1	HCT-8	RNA-seq, measured: SLC6A12	–	concentration not given	–	mRNA level, LS mean	2.4 counts per million
COc1ccc(Cc2ncnc3cc(OC)c(OC)cc23)cc1	A549	mitochondrial oxygen consumption, Seahorse XF96	–	10 µM	–	inhibition	23%
C=CC(=O)N1CCC[C@@H](n2nc(-c3ccc(Oc4ccccc4)cc3)c3c(N)ncnc32)C1	Ramos	calcium flux, FLIPR	–	1 h preincubation	–	maximum inhibition	92.9%

Compound	tested on	test	test system	setting	how to read	measurement	result
O=C(COc1ccc(Cl)cc1)NC1CCC(NC(=O)COc2ccc(Cl)cc2)CC1 (stereo not drawn)	Mfn2-deficient and wild-type MEFs	PGL-induced mitochondrial distribution	–	200 nM, 6 h, with: PGL	–	mitochondrial-nuclear distance	inhibited
Cc1cc2c(F)c(Oc3ncnn4cc(OC[C@@H](C)O)c(C)c34)ccc2[nH]1	iCell Cardiomyocytes (hiPSC-derived)	CellTiter-Glo	–	concentration not given, 24 h	baseline: control	ATP level	105%
CC(C)(c1ccc(O)cc1)c1ccc(O)cc1	HepG2 spheroids	Hoechst flow cytometry	–	0.10 µM, 96 h	–	G1 phase cells	74.3 ± 5.68%
COc1cnc2cccc(N3CCc4c(cc(Cn5ccnc5C)cc4-c4cn(C)nc4C(F)(F)F)C3=O)c2c1	Ramos	cell growth, inhibitor	–	120 h	–	EC50	4.53 µM
COc1ccc(C[C@@H]2c3cc(Oc4cc(C[C@@H]5c6cc(OC)c(OC)cc6CCN5C)ccc4O)c(OC)cc3CCN2C)cc1	3T3-L1	adipocyte lipid accumulation, Nile Red staining	–	10 µM	–	inhibition	42.2 ± 1%
CC(C)NCC(O)c1ccc(O)c(O)c1 (stereo not drawn)	mouse ventricular cardiomyocytes	–	–	dose not given, 0.175 s	–	sarcomere length	1.63 µm
CC1(C)COc2ccc(F)cc2CN2c3nc4c(cnn4cc3OC[C@H]2C(F)F)C(=O)N1	Ba/F3 EML4-ALK variant 1 E1210K	cell viability	–	–	–	Emax	99.6%
CCCCc1oc2ccc(NS(C)(=O)=O)cc2c1C(=O)c1ccc(OCCCN(CCCC)CCCC)cc1	human embryonic stem cell aggregates	mRNA level, microarray, measured: NEUROG2	–	0.5 µM, 120 h	baseline: untreated, up-regulated	fold change	2.2 fold
CCCCCC(=O)NCC(=O)O	–	binding, equilibrium dialysis LC-MS	–	5 µM, thermostabilized A2AR-BRIL construct	baseline: no-protein control, direction not given	z-scored log2 fold change	-1.4
C[C@H]1CN(C2COC2)CCN1c1ccc(Nc2cc(-c3ccnc(N4CCn5c(cc6c5CC(C)(C)C6)C4=O)c3CO)cn(C)c2=O)nc1	Ramos	calcium flux, FLIPR	–	4 h preincubation	–	IC50	0.00294 µM
CC(C)C[C@@H](C=O)NC(=O)[C@H](CC(C)C)NC(=O)[C@H](CC(C)C)NC(=O)OCc1ccccc1	HEK293	measured: CD4 signal peptide-FLuc reporter	–	concentration not given, 1 h, time-course chase, unit not given, with: cycloheximide	baseline: untreated	FLuc activity	0.983
CCC(=O)N1CCC(COCC(=O)N2CCN(c3nc(-c4cnc(N)nc4C(F)F)nc(N4CCOC[C@@H]4C)n3)CC2)CC1	SK-OV-3	resazurin growth rate inhibition	–	72 h	–	GR50	267 nM
CC1(C)CCC(CN2CCN(c3ccc(C(=O)NS(=O)(=O)c4ccc(NCC5CCOCC5)c([N+](=O)[O-])c4)c(Oc4cnc5[nH]ccc5c4)c3)CC2)=C(c2ccc(Cl)cc2)C1	THP-1	annexin V/PI flow cytometry, measured: annexin V+/PI+	–	3.2 µM, 24 h	–	late apoptotic cells	4.3%
Cn1cc(-c2ccc(F)c(C(F)(F)F)c2)nc1C1CCN(c2ncnc3[nH]ncc23)CC1	SK-OV-3	ATP	–	10 µM, 4 days, 3D U-bottom low-attachment	baseline: untreated	relative cell number	111%
c1cnc2c(c1)ccc1cccnc12	differentiated THP-1	–	–	25 µg/mL	baseline: albendazole and praziquantel	IL-10 mRNA level	increased
Cc1ccc(-n2nc(C(C)(C)C)cc2NC(=O)Nc2ccc(OCCN3CCOCC3)c3ccccc23)cc1	iCell Cardiomyocytes (hiPSC-derived)	xCELLigence Cardio impedance	–	concentration not given, 2 h	baseline: control	beat amplitude	94.1%
O=C(/C=C/C=C/C=C/C1CCCCC1)NC1=C[C@@](O)(/C=C/C=C/C=C/C(=O)NC2=C(O)CCC2=O)[C@@H]2O[C@@H]2C1=O	tccpan2	cell growth, inhibitor, CellTiter-Glo luminescence	–	78 h	baseline: day 0 cell count	GI50	18.7 µM
CC[C@@H]1C(=O)N(C)c2cnc(Nc3ccc(C(=O)NC4CCN(C)CC4)cc3OC)nc2N1C1CCCC1	iCell Cardiomyocytes (hiPSC-derived)	CellTiter-Glo	–	concentration not given, 24 h	baseline: control	ATP level	91.7%
CSc1cc(Oc2ccnc3[nH]c(=O)cnc23)ccc1NC(=O)Nc1cc(C(C)(C)C)nn1-c1ccccc1	patient-derived cells	RPPA, measured: phosphorylated Rb	–	1 µM, 4 h, mean of three patients	baseline: DMSO	phospho ratio	0.76
Oc1cccc(-c2nc(N3CCOCC3)c3oc4ncccc4c3n2)c1	iCell Cardiomyocytes (hiPSC-derived)	xCELLigence Cardio impedance	–	concentration not given, 2 h	baseline: control	beat amplitude	104%
Cn1cc(-c2ccc(-c3cncc(Cl)c3N3CCC4(CCNC4=O)CC3)cc2)cn1	COLO 205	gene expression, microarray, measured: SLC2A4 (GLUT4) mRNA	–	concentration not given, 2 h	baseline: untreated cells	log2 fold change	-3.11

A few entries again:
Compound	tested on	test	test system	setting	how to read	measurement	result
Cc1cc2c(F)c(Oc3ncnn4cc(OC[C@@H](C)O)c(C)c34)ccc2[nH]1	iCell Cardiomyocytes (hiPSC-derived)	CellTiter-Glo	–	concentration not given, 24 h	baseline: control	ATP level	105%
CC(C)(c1ccc(O)cc1)c1ccc(O)cc1	HepG2 spheroids	Hoechst flow cytometry	–	0.10 µM, 96 h	–	G1 phase cells	74.3 ± 5.68%
